Measurements collected from several papers.
Lines come from different studies, so protocols differ.
ABL1 phosphorylated: Tyrosine-protein kinase ABL1, phosphorylated (ABL1, Homo sapiens, UniProt P00519)
ABL1 H396P non-phosphorylated: Tyrosine-protein kinase ABL1, non-phosphorylated (ABL1, Homo sapiens, UniProt P00519, H396P)

| SMILES | target | test | conditions | how to read | quantity | result |
| --- | --- | --- | --- | --- | --- | --- |
| Cc1cnc2nc1Nc1cccc(c1)COC/C=C/COCc1cc(ccc1OCCN1CCOCC1)N2 | Tyrosine-protein kinase ABL1 (ABL1, Homo sapiens, UniProt P00519, H396P) | binding | 0.1 µM | – | remaining binding | 54% |
| CNC1C[S+]2CC[S+]3CC[S+](C1)[Ru-4]321([N]=C=S)[n]2c3ccc(OC)cc3c3c4c(c5cc(F)c[n+]1c5c32)C(=O)NC4=O (stereo not drawn) | ABL1 phosphorylated | KinomeScan | 0.1 µM | reference: untreated | remaining binding | 100% |
| COc1cc(Nc2nccc(-c3cnn4nc(OC)ccc34)n2)cc(C(F)(F)F)c1 | ABL1 H396P non-phosphorylated | binding | 1 µM | – | remaining binding | 99% |
| C=CC(=O)N1CCCC(n2c(=O)c3ncccc3n(Cc3ccc(Oc4ccccc4)cc3)c2=O)C1 (stereo not drawn) | Tyrosine-protein kinase ABL1 (ABL1, Homo sapiens, UniProt P00519, F317I) | kinase activity | 1 µM | – | remaining activity | 100% |
| CNC(=O)C1CCN(c2cc(C)c(F)cc2NC(=O)c2ccc(-c3cc(O)ccc3C)c(C)c2)CC1 | ABL1 H396P non-phosphorylated | binding, competition with immobilised ligand | 1 µM | – | remaining binding | 20% |
| Nc1ncc2c(n1)-c1c([nH]c3ccc(C4=CCOCC4)cc13)CCC2 | Tyrosine-protein kinase ABL1, non-phosphorylated (ABL1, Homo sapiens, UniProt P00519) | binding, competition with immobilised ligand | 1 µM | – | remaining binding | 100% |
| CCN1CCN(Cc2ccc(C(=O)Nc3ccc(C)c(NCc4cnc5[nH]ccc5c4OC)c3)cc2C(F)(F)F)CC1 | Tyrosine-protein kinase ABL1, phosphorylated (ABL1, Homo sapiens, UniProt P00519, T315I) | binding, competition with immobilised ligand | 1 µM | – | remaining binding | 1.2% |
| Cc1ccc(-c2c(/C=C(\C#N)C(=O)NC(C)C)n(CCCO)c3ncnc(N)c23)cc1 | ABL1 phosphorylated | cell-free assay, competition with immobilised ligand | 1 µM | – | remaining binding | 94% |
| C=CC(=O)N1CCc2ccc(-n3c(=O)ccc4cnc5ccc(-c6cnn(C)c6)cc5c43)cc21 | Tyrosine-protein kinase ABL1, phosphorylated (ABL1, Homo sapiens, UniProt P00519, F317I) | KINOMEscan, item: (F317I)-phosphorylated | 1 µM | reference: control | remaining binding | 100% |

Some of these lines once more:
| SMILES | target | test | conditions | how to read | quantity | result |
| --- | --- | --- | --- | --- | --- | --- |
| C=CC(=O)N1CCCC(n2c(=O)c3ncccc3n(Cc3ccc(Oc4ccccc4)cc3)c2=O)C1 (stereo not drawn) | Tyrosine-protein kinase ABL1 (ABL1, Homo sapiens, UniProt P00519, F317I) | kinase activity | 1 µM | – | remaining activity | 100% |
